Experimental data pooled from the literature.
Each line is one published result; not all experiments were run side by side. Numbers after ± are the reported error.

`oseltamivir carboxylate` has an EC50 of 5.6 µM (Influenza A virus H1N1; viral replication, MTS).
`O=C(NN1C(=O)C2C3C=CC(C4CC34)C2C1=O)c1ccc(C(F)(F)F)cc1` (stereo not shown) has an EC50 of 0.0028 ± 0.0015 µM (Monkeypox virus; viral replication; HEL 299).
`CC(N)C12CC3CC(CC(C3)C1)C2` (stereo not shown) has an EC50 of 32 µg/mL (SARS coronavirus; FRhK-4; 72 h).
`COc1ccccc1NC(=O)NCC1CCOC2(CCN(C(=O)C3(c4ccccc4)CCCC3)CC2)C1` (stereo not shown) has an EC50 of > 39.8 µM (Venezuelan equine encephalitis virus; viral replication).
The EC50 of `O=C(Nc1ccc(N2CCCCC2)c(F)c1)c1ccc(CN2CCOCC2)cc1` is reported as > 100 µM (Lake Victoria marburgvirus; viral entry; MARV-GP pseudovirus).
With `CC[C@H]1CN2CCc3cc(OC)c(OC)cc3[C@@H]2C[C@@H]1C[C@H]1NCCc2cc(OC)c(OC)cc21` the EC50 was 0.16 µM (Middle East respiratory syndrome-related coronavirus; pseudovirus entry; Huh7.5, spike-pseudotyped HIV-1; 48 h).
`CS(=O)(=O)NCC1CCOC2(CCN(C(=O)C3(c4ccccc4)CCCCC3)CC2)C1` (stereo not shown) has an EC50 of > 39.8 µM (Venezuelan equine encephalitis virus; viral replication).
With `O=c1ccn([C@@H]2O[C@](F)(CO)[C@@H](O)[C@H]2O)c(=O)[nH]1` the EC50 was 0.29 to 2.65 µM (Mammarenavirus lujoense; viral replication).
`O=c1[nH]c(=O)n([C@H]2C[C@H](O)[C@@H](CO)O2)cc1/C=C/Br` gave an EC50 of 4 ± 2.3 µM (Vaccinia virus; antiviral activity; HEL, Lederle).
`Nc1ncnc2c([C@@H]3N[C@H](CO)[C@@H](O)[C@H]3O)c[nH]c12` gave an inhibition of 11.3% (Zaire ebolavirus; viral replication; HeLa, Kikwit; 6.3 µM).
`Cc1cc2ncn(-c3ccc(OC(C)C)cc3)c2cc1-c1ccc(OC(C)C)cc1` gave an EC50 of ≤ 0.004 µM (vesicular stomatitis virus; viral entry, inhibitor; pseudotyped with Junin virus glycoprotein).
For `CC[C@H](C)[C@H](NC(=O)[C@H](CC(C)C)NC(=O)[C@H](Cc1c[nH]c2ccccc12)NC(=O)[C@H](CCC(N)=O)NC(=O)[C@@H](NC(=O)[C@H](Cc1ccccc1)NC(=O)[C@H](C)NC(=O)[C@H](CCCCNC(=O)COCCOCCNC(=O)COCCOCCNC(=O)CC[C@H](NC(=O)CCCCCCCCCCCCCCCCCCC(=O)O)C(=O)O)NC(=O)[C@H](CCC(N)=O)NC(=O)[C@H](C)NC(=O)[C@@H](NC(=O)[C@H](CCCCN)NC(=O)[C@H](CC(=O)O)NC(=O)[C@H](CC(C)C)NC(=O)C(C)(C)NC(=O)[C@@H](NC(=O)[C@H](CO)NC(=O)[C@H](Cc1ccc(O)cc1)NC(=O)[C@H](CC(=O)O)NC(=O)[C@H](CO)NC(=O)[C@@H](NC(=O)[C@H](Cc1ccccc1)NC(=O)[C@@H](NC(=O)CNC(=O)[C@H](CCC(=O)O)NC(=O)C(C)(C)NC(=O)[C@@H](N)Cc1ccc(O)cc1)[C@@H](C)O)[C@@H](C)O)[C@@H](C)CC)[C@@H](C)CC)C(C)C)C(=O)N[C@@H](C)C(=O)NCC(=O)NCC(=O)N1CCC[C@H]1C(=O)N[C@@H](CO)C(=O)N[C@@H](CO)C(=O)NCC(=O)N[C@@H](C)C(=O)N1CCC[C@H]1C(=O)N1CCC[C@H]1C(=O)N1CCC[C@H]1C(=O)N[C@@H](CO)C(N)=O`, the total ALT was 24.4 ± 10.9 U/L (patients with type 2 diabetes, serum; 5/5/10/15 mg escalating, baseline).
For `O=c1[nH]c(=O)n([C@H]2C[C@H](O)[C@@H](CO)O2)cc1/C=C/Br`, the EC50 was 10 µM (vaccinia virus; viral replication; HEL).
`Cc1cc(C)c2sc(NC(=O)c3cc4ccccc4o3)nc2n1` has an EC50 of > 32 µM (Powassan virus; cytopathic effect, neutral red uptake; BHK-21, LB).
The EC50 of `COc1ccc2c(c1)CCC(c1ccccc1)=C2c1ccc(OCCN2CCCC2)cc1` is reported as > 100 µM (SARS-CoV-2; viral replication, GFP plate reader screen; cell-based).
For `CO[C@H]1/C=C/O[C@@]2(C)Oc3c(C)c(O)c4c(O)c(c(/C=N/N5CCN(C6CCCC6)CC5)c(O)c4c3C2=O)NC(=O)/C(C)=C\C=C\[C@H](C)[C@H](O)[C@@H](C)[C@@H](O)[C@@H](C)[C@H](OC(C)=O)[C@@H]1C`, the EC50 was 0.13 µM (Yellow fever virus; viral replication; BHK-21).
`CC(C)Oc1ccc(-c2ccn3cnc(-c4ccc(OC(C)C)cc4)c3c2)cc1` has an EC50 of > 0.02 µM (vesicular stomatitis virus; viral entry, inhibitor; pseudotyped with Machupo virus glycoprotein).
For `O=C(N1CCC2(CC1)C[C@@H](CN1CCCCS1(=O)=O)CCO2)C1(c2ccccc2)CCCC1`, the EC50 was > 32 µM (Influenza A virus H5N1; viral replication; MDCK).
With `CN(C)S(=O)(=O)N(C)CC1CCOC2(CCN(C(=O)C3(c4ccccc4)CCCC3)CC2)C1` (stereo not shown) the EC50 was 12.6 µM (Venezuelan equine encephalitis virus; viral replication).
For `Cc1[nH]c(/C=C2\C(=O)Nc3ccccc32)c(C)c1CCC(=O)O`, the EC50 was > 25.1 µM (SARS-CoV-2; viral replication, high-content imaging screen; cell-based).
With `Cc1ccccc1CN1C(=O)c2ccccc2Sc2ccc(C(=O)NCCCN3CCOCC3)cc21` the maximum response was 65.6% (SARS-CoV-2; cytopathic effect; USA_WA1/2020; round 1, 5-point).
With `CC(C)Oc1ccc(-c2ccc3cnc(-c4ccc(OC(C)C)cc4)n3c2)cc1` the EC50 was > 0.02 µM (vesicular stomatitis virus; viral entry, inhibitor; pseudotyped with Junin virus glycoprotein).
For `CCN(C)S(=O)(=O)NCC1CCOC2(CCN(C(=O)C3(c4ccccc4)CCCC3)CC2)C1` (stereo not shown), the EC50 was 31.6 µM (Venezuelan equine encephalitis virus; viral replication).
The EC50 of `CN1CCC(c2cc3cc(Cl)ccc3o2)CC1` is reported as 17.2 µM (SARS-CoV-2; viral replication, GFP plate reader screen; BetaCov/Belgium/GHB-03021/2020; cell-based).
`S=c1[nH]nc(NCNc2n[nH]c(=S)s2)s1` has an EC50 of 64 µg/mL (Xanthomonas oryzae pv. oryzicola; bacterial growth).
`CN1CCC(OC(=O)C(Oc2ccc(Cl)cc2)Oc2ccc(Cl)cc2)CC1` has an EC50 of > 100 µM (SARS-CoV-2; viral replication, high-content imaging screen; cell-based).
With `N#C[C@@]1(n2ccc(N)nc2=O)O[C@H](CO)[C@@H](O)[C@H]1O` the EC50 was > 20 µM (chikungunya virus; viral replication, cell-based).
`C=CC(=O)Nc1cc(Nc2nccc(-c3cn(C)c4ccccc34)n2)c(OC)cc1N(C)CCN(C)C` gave an EC50 of 2.71 µM (Severe acute respiratory syndrome coronavirus; pseudoparticle entry; Vero C1008; 48 h).
Under “time of death”, `CCc1c(C(=O)C(N)=O)c2c(OCC(=O)O)cccc2n1Cc1ccccc1` is recorded as > 24 h (mouse; 120 µg/mouse, observed up to 24 h, added: Daboia russelii venom, West, preincubated).
With `Cc1cc2nnn(-c3ccc(OC(C)C)cc3)c2cc1-c1ccc(OC(C)C)cc1` the EC50 was < 0.001 µM (Junin virus; viral replication).
`Cc1ccccc1CN1CCN(CCOC(c2ccccc2)c2ccccc2Cl)CC1` (stereo not shown) has an EC50 of > 100 µM (SARS-CoV-2; viral replication, GFP plate reader screen; cell-based).
The EC50 of `Nc1ccn(C[C@@H](CO)OCP(=O)(O)O)c(=O)n1` is reported as 24.9 ± 2.4 µM (Monkeypox virus; viral replication; Vero).
`Cc1cc2ncn(-c3ccc(OC(C)(C)C)cc3)c2cc1-c1ccc(OC(C)(C)O)cc1` gave an EC50 of ≤ 0.004 µM (vesicular stomatitis virus; viral entry, inhibitor; pseudotyped with Junin virus glycoprotein).
For `CNCCC=C1c2ccccc2C=Cc2ccccc21`, the EC50 was > 50.1 µM (SARS-CoV-2; viral replication, high-content imaging screen; BetaCov/Belgium/GHB-03021/2020; cell-based).
For `CN(C)S(=O)(=O)NCC1CCOC2(CCN(C(=O)C3(c4ccccc4Cl)CCCC3)CC2)C1` (stereo not shown), the EC50 was 2 µM (Venezuelan equine encephalitis virus; viral replication).
`O=C(c1cc2ccccc2n1Cc1ccccc1)N1CCCCC1` gave an EC50 of > 100 µM (Marburg virus; pseudovirus entry; A549).
The EC50 of `NC(=O)c1ncn([C@@H]2O[C@H](CO)[C@@H](O)[C@H]2O)n1` is reported as 5.1 ± 2.08 µM (Lassa virus; Huh-7).
With `CCOC(=O)[C@H]1O[C@@H]1C(=O)N[C@@H](CC(C)C)C(=O)NCCC(C)C` the EC50 was 34.3 µM (SARS-CoV-2; viral replication, GFP plate reader screen; cell-based).
`CC(C)(C)NC(=O)NCC1CCOC2(CCN(C(=O)C3(c4ccccc4)CCCC3)CC2)C1` (stereo not shown) has an EC50 of > 39.8 µM (Venezuelan equine encephalitis virus; viral replication).
`O=C(Nc1ccc(N2CCC(F)(F)CC2)cc1)c1cc2occc2n1Cc1ccc(Cl)cc1` gave an EC50 of > 100 µM (Marburg virus; pseudovirus entry; A549).
For `Nc1cc2nc[nH]c2c(=O)[nH]1`, the EC50 was 1.6 ± 1.5 µM (Junin virus; viral replication, inhibitor; Vero, Candid #1).
`NC(=O)c1ncn([C@@H]2O[C@H](CO)[C@@H](O)[C@H]2O)n1` has an EC50 of 26 µM (influenza A virus; viral replication; A549, H5N1).
`N#Cc1c(Nc2ccc(F)cc2)n[nH]c1NS(=O)(=O)c1ccc2ccccc2c1` has an EC50 of > 25 µM (Japanese encephalitis virus; viral replication; Vero 76, SA-14).
`O=c1cnn([C@@H]2O[C@H](CO)[C@@H](O)[C@H]2O)c(=O)[nH]1` has an EC50 of 0.7 ± 0.5 µM (Junin virus; viral replication, inhibitor; Vero, Candid #1).
With `CCC(C)n1ncn(-c2ccc(N3CCN(c4ccc(OCC5COC(Cn6cncn6)(c6ccc(Cl)cc6Cl)O5)cc4)CC3)cc2)c1=O` (stereo not shown) the EC50 was 0.83 ± 0.09 µM (PV3; viral replication; 72 h).
`O=C(N1CCC2(CC1)CC(Oc1ccccn1)CCO2)C1(c2ccccc2)CCCC1` (stereo not shown) has an EC50 of > 39.8 µM (Venezuelan equine encephalitis virus; viral replication).
`O=C1c2c(O)c(=O)ccn2N([C@@H]2c3ccccc3SCc3c2ccc(F)c3F)[C@@H]2COCCN12` gave an EC50 of 0.0002 ± 2e-05 µM (Influenza A virus; viral replication; A(H7N1); mean).
The EC50 of `Fc1ccc([C@@H]2CCNC[C@H]2COc2ccc3c(c2)OCO3)cc1` is reported as > 100 µM (SARS-CoV-2; viral replication, high-content imaging screen; cell-based).
`Cc1cccc(C)c1OCC(=O)N[C@@H](Cc1ccccc1)[C@@H](O)C[C@H](Cc1ccccc1)NC(=O)[C@H](C(C)C)N1CCCNC1=O` gave an EC50 of 4 to 8 µg/mL (SARS coronavirus; FRhK-4; 72 h).
`Nc1ccn(C[C@@H](CO)OCP(=O)(O)O)c(=O)n1` gave an EC50 of 7.3 ± 4.6 µM (Vaccinia virus; viral replication; Lederle).
`CNC(=O)[C@@H](NC(=O)[C@H](CC(C)C)[C@H](O)C(=O)NO)C(C)(C)C`: “remaining fibrinogen Bβ chain” 0.73 (human fibrinogen; SDS-PAGE; Daboia russelii; concentration not given, unit not given, added: AP venom; baseline: untreated fibrinogen).
With `CN(C)S(=O)(=O)NCC1CCOC2(CCN(C(=O)C3(c4cccc(C(F)(F)F)c4)CCCC3)CC2)C1` (stereo not shown) the EC50 was > 39.8 µM (Venezuelan equine encephalitis virus; viral replication).
`Cc1oc(-c2cccc(Cl)c2)nc1CN1CCCC(C(=O)NCCc2ccc(Cl)cc2)C1` (stereo not shown) gave an efficacy of 49.9% (SARS-CoV-2; cytopathic effect; USA_WA1/2020; round 1, 5-point).
The EC50 of `NC(=O)c1nc(F)c[nH]c1=O` is reported as 21 µM (Rift Valley fever virus; viral replication; MDCK).
`Cn1cnc(Cn2c(=O)[nH]/c(=N\c3cc4cn(C)nc4cc3Cl)n(Cc3cc(F)c(F)cc3F)c2=O)n1` has a terminal half-life of 44 h (human, normal renal function; oral, 375 mg, single dose, geometric mean).
